Measured values from different studies.
Each line is one published result; not all experiments were run side by side. Numbers after ± are the reported error.

C#CCn1cc(C=O)c2cc([N+](=O)[O-])ccc21 — IC50 (Trypanosoma brucei rhodesiense; trypomastigotes, IL1501): > 110000 nM
O=CCc1ccccc1 — IC50 (cysteine peptide Ac-RFAACAA-COOH; peptide depletion, DPRA RapidFire-MS/MS; 24 h, pH 7.5, room temperature, with: 5.0 µM cysteine peptide): inactive
COc1ccc(C[C@H](N)C(=O)N[C@H]2[C@@H](O)[C@H](n3cnc4c(N(C)C)ncnc43)O[C@@H]2CO)cc1 — IC50 (Trypanosoma cruzi; PrestoBlue; trypomastigote; 48 h, DMSO stock sample): 505 ± 84.9 nM
O=C(Cn1ccnc1[N+](=O)[O-])NCc1ccccc1 — IC50 (Trypanosoma cruzi; growth; Y, epimastigote; 72 h): 2900 ± 600 nM
CCOC(=O)c1c(N)sc2c1CCC(c1ccccc1)C2 (centres unmarked) — IC50 (Enterococcus faecalis; bacterial growth; ATCC 29122): 44.1 ± 1.28 µg/mL
C/C=C(C)/C=C/C=C/[C@H](OC)[C@@H](C)[C@@H](OC)[C@@H](C)CCc1oc2c(O)c(OC)cc(OC)c2c(=O)c1C — IC50 (Wickerhamomyces anomalus; O2 uptake, inhibitor; mitochondria; with: duroquinol 1 mM): 30 nM
C#CCn1cc(/C=N/N2C(=O)CSC2=S)c2cc([N+](=O)[O-])ccc21 — IC50 (Trypanosoma brucei gambiense; trypomastigotes, IL1922): > 59000 nM
CCOc1cccc2sc(N(Cc3cccnc3)C(=O)C3CCCCC3)nc12 — IC50 (Trypanosoma cruzi; imaging; 3T3 fibroblasts, Tulahuen amastigote; 48 h): 840 ± 170 nM
CC(C=CC1(C)C(C)CCC(=O)C1C)=CCc1c(O)c(C=O)c(C)c(Cl)c1OCC(=O)O (centres unmarked) — IC50 (Wickerhamomyces anomalus; O2 uptake, inhibitor; mitochondria; with: succinate 15 mM): 43500 nM
Nc1cccc(O)c1 — IC50 (cysteine peptide Ac-RFAACAA-COOH; peptide depletion, DPRA RapidFire-MS/MS; 24 h, pH 7.5, room temperature, with: 5.0 µM cysteine peptide): 8660 nM
O=C1CSC(=S)N1/N=C/c1c[nH]c2ccc([N+](=O)[O-])cc12 — IC50 (Trypanosoma brucei rhodesiense; trypomastigotes, IL1501): > 61000 nM

A few entries again:
C#CCn1cc(C=O)c2cc([N+](=O)[O-])ccc21 — IC50 (Trypanosoma brucei rhodesiense; trypomastigotes, IL1501): > 110000 nM
